{"data": "Measured values pooled from the literature", "SCRIB PDZ3 domain": "Protein scribble homolog, PDZ3 domain (SCRIB, Homo sapiens, UniProt Q14160)", "note": "Each line is one published result; not all experiments were run side by side. Values joined by “and” are separate records of one study, mostly repeats; a detail may differ. ± gives the spread as reported.", "sequence of UniProt Q14160 (whole entry, looked up)": "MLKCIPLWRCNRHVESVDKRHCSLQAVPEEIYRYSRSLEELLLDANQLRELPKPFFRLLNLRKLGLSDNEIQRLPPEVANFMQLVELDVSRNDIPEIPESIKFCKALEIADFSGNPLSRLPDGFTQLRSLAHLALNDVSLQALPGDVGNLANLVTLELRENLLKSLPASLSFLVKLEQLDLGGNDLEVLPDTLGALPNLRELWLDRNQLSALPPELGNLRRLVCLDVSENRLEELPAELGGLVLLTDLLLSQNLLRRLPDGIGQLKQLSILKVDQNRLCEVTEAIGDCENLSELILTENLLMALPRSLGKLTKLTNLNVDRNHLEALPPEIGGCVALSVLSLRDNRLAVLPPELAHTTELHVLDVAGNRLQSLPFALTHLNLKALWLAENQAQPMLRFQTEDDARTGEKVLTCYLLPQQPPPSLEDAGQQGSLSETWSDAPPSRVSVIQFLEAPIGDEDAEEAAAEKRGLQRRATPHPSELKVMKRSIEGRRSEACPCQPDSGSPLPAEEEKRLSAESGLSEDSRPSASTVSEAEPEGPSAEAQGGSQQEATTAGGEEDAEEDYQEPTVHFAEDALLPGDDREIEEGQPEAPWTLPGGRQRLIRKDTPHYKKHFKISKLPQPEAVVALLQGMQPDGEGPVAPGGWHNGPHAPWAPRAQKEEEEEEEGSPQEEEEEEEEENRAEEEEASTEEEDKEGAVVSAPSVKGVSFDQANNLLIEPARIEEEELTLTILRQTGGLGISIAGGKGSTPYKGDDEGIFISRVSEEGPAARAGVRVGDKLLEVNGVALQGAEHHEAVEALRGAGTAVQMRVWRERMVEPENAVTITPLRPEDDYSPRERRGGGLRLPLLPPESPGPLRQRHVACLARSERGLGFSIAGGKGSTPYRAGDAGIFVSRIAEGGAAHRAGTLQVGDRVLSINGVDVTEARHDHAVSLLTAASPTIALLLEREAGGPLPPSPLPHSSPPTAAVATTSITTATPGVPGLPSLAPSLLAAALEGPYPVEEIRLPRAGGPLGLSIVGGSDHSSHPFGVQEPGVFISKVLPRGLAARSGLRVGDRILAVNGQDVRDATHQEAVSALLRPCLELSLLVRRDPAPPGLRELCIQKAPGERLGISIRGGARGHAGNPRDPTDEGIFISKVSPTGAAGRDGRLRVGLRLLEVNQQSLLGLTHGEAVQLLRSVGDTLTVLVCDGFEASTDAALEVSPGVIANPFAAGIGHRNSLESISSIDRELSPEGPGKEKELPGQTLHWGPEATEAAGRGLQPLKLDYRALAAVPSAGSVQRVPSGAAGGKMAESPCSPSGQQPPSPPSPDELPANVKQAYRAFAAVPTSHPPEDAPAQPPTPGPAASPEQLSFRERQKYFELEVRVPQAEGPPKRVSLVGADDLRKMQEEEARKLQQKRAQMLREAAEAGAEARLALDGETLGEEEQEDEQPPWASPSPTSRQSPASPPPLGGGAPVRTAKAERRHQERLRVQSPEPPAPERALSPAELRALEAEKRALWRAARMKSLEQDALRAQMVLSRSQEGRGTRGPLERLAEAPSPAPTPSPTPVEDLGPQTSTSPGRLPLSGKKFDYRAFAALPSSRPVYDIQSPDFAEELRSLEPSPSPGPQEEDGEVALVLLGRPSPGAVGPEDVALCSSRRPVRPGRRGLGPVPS", "sequence of UniProt Q16538 (whole entry, looked up)": "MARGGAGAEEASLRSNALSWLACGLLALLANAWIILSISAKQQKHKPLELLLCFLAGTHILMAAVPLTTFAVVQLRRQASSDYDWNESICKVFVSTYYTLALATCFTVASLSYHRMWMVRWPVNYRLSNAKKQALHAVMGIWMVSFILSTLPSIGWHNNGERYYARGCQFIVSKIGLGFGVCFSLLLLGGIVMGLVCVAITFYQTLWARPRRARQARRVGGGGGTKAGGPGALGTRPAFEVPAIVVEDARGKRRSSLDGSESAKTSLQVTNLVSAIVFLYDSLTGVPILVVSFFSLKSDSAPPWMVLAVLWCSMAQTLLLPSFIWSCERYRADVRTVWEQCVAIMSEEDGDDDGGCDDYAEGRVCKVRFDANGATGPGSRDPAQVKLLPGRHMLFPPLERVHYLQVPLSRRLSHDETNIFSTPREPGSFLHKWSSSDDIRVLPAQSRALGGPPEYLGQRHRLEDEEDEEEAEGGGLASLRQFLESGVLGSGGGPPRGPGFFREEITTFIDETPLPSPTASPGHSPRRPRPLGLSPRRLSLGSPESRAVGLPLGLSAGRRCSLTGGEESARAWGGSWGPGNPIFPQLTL"}
{"Compound": "CCCCCCCCCCCCCCCCCC[N+](C)(C)CCCCCCCCCCCC[N+](C)(C)CCCCCCCCCCCCCCCCCC.[Br-].[Br-]", "tested on": "influenza A virus A/PR/8/34 (H1N1)", "setting": "concentration not given, co-treatment", "quantity": "HA titre reduction", "value": "0 log units"}
{"Compound": "C=CCNCCc1c[nH]c2cccc(O)c12.C=CCNCCc1c[nH]c2cccc(O)c12.O=C(O)/C=C/C(=O)O", "test system": "C57BL/6J mice", "setting": "subcutaneous, 0.03 mg/kg, 30 min", "quantity": "distance travelled", "value": "2790 ± 111 cm"}
{"Compound": "O=c1ccn([C@@H]2O[C@](F)(CO)[C@@H](O)[C@H]2O)c(=O)[nH]1", "tested on": "human respiratory syncytial virus", "test system": "recombinant reporter virus", "setting": "concentration not given, scale 0 to 100, added: adenosine 1.2 µM", "quantity": "normalized viral replication", "value": "1.22 and 1.75 and 1.69"}
{"Compound": "N=C(N)NCCC[C@@H]1NC(=O)[C@H](CCCCNC(=O)c2ccc(CNC34CNCCNCC(N)(CNCCNC3)CNCCNC4)cc2)NC(=O)[C@@H](Cc2ccc(O)cc2)NC(=O)[C@H](CC(=O)O)NC(=O)CNC1=O [copper-64 labelled]", "test": "microPET", "test system": "male athymic nude mouse, PC-3 tumour, liver", "setting": "intravenous, 7.4 MBq, 2 h", "quantity": "tissue uptake", "value": "1.49 ± 0.2 %ID/g"}
{"Compound": "CC[C@H](C)[C@H](NC(=O)[C@H](C)NC(=O)[C@H](CCCCN)NC(=O)[C@H](CC(C)C)NC(=O)[C@H](C)NC(=O)[C@@H](NC(=O)[C@H](Cc1c[nH]cn1)NC(=O)[C@H](CC(C)C)NC(=O)[C@@H](NC(=O)[C@@H](NC(=O)[C@H](CCCCN)NC(=O)[C@H](C)NC(=O)[C@H](C)NC(=O)[C@H](CO)NC(=O)[C@H](CCCCN)NC(=O)[C@H](Cc1ccccc1)NC(=O)[C@@H](NC(=O)[C@H](CCCCN)NC(=O)[C@H](CC(C)C)NC(=O)[C@H](Cc1ccccc1)NC(=O)[C@H](CO)NC(=O)[C@H](CCCCN)NC(=O)[C@H](Cc1c[nH]c2ccccc12)NC(=O)[C@H](CCCCN)NC(C)=O)[C@@H](C)O)[C@@H](C)O)C(C)C)[C@@H](C)O)C(=O)N[C@@H](CO)C(=O)N[C@@H](CO)C(N)=O", "tested on": "Enterococcus faecium", "setting": "40 strains", "quantity": "MIC50", "value": "4 µg/mL"}
{"Compound": "N.N.[Cl][Pt][Cl]", "test system": "SAS xenograft, KSN/Slc nude mice", "setting": "dose not given, day 10, group mean", "quantity": "tumour volume", "value": "240 mm3"}
{"Compound": "CSCC[C@H](NC(=O)[C@H](CC(C)C)NC(=O)[C@@H](NC(=O)[C@H](C)NC(=O)[C@H](CCSC)NC(=O)[C@H](CCCCN)NC(=O)[C@H](CC(N)=O)NC(=O)[C@@H]1CCCN1C(=O)[C@H](CC(N)=O)NC(=O)[C@@H](N)CC(C)C)[C@@H](C)O)C(=O)O", "tested on": "SCRIB PDZ3 domain", "test": "binding, fluorescence polarization", "test system": "solution", "setting": "Scribble PDZ3 domain", "quantity": "Kd", "value": "59.5 µM"}
{"Compound": "CCCCCCCCCCCC[N+](C)(C)CCOCC[N+](C)(C)CCCCCCCCCCCC.[Br-].[Br-]", "tested on": "influenza A virus A/PR/8/34 (H1N1)", "setting": "concentration not given, pre-treatment", "quantity": "HA titre reduction", "value": "3 ± 1 log units"}
{"Compound": "CC(C)(C)NCCc1c[nH]c2cccc(O)c12.CC(C)(C)NCCc1c[nH]c2cccc(O)c12.O=C(O)/C=C/C(=O)O", "test system": "C57BL/6J mice", "setting": "subcutaneous, 10 mg/kg", "quantity": "head twitch count", "value": "8.3 ± 1.4"}
{"Compound": "Oc1ccc2c3c1O[C@H]1[C@@H](O)CC[C@@]4(O)[C@@H](C2)N(CC2CCC2)CC[C@]314", "tested on": "Probable G-protein coupled receptor 162 (GPR162, Homo sapiens, UniProt Q16538)", "test": "β-arrestin recruitment, TANGO luminescence, measured: GPR162", "setting": "concentration not given", "scale": "relative to: basal luminescence", "quantity": "log2 fold change", "value": 0.278}
{"Compound": "COc1cc(CCC[P+](c2ccccc2)(c2ccccc2)c2ccccc2)c(OC)c2c1OCO2.[I-]", "tested on": "LOX IMVI", "test": "SRB", "quantity": "Log10GI50", "value": "-5.61 log M"}
{"Compound": "CCOP(=S)(OCC)Oc1cnc2ccccc2n1", "tested on": "nanobody A4", "test": "ic-ELISA", "setting": "concentration not given", "scale": "relative to: coumaphos IC50 over compound IC50, mass basis", "quantity": "cross-reactivity", "value": "27%"}
{"Compound": "CC(C)C[C@H](NC(=O)[C@H](CC(=O)O)NC(=O)[C@@H](NC(=O)[C@H](CO)NC(=O)[C@H](C)NC(=O)[C@H](CCCCN)NC(=O)[C@H](C)NC(=O)[C@@H](NC(=O)[C@H](CC(C)C)NC(=O)[C@@H](N)C(C)C)[C@@H](C)O)[C@@H](C)O)C(=O)O", "tested on": "SCRIB PDZ3 domain", "test": "binding, fluorescence polarization", "test system": "solution", "setting": "Scribble PDZ3 domain", "quantity": "Kd", "value": "11.3 µM"}
{"Compound": "CCCCNCCc1c[nH]c2cccc(O)c12.O=C(O)/C=C/C(=O)O", "test system": "C57BL/6J mice", "setting": "subcutaneous, 0.03 mg/kg, 30 min", "quantity": "distance travelled", "value": "2450 ± 320 cm"}
{"Compound": "CCCCCCCCCCCCCCCCCC[N+](C)(C)CCCCCCCCCC[N+](C)(C)CCCCCCCCCCCCCCCCCC.[Br-].[Br-]", "tested on": "influenza A virus A/PR/8/34 (H1N1)", "setting": "concentration not given, pre-treatment", "quantity": "protection", "value": "73.9 ± 3.2%"}
{"Compound": "O=C1NC(=O)C(C2C3=C(CCCC3=O)Oc3ccc([N+](=O)[O-])cc32)C(=O)N1 (stereo not shown)", "tested on": "3T3-L1 pre-adipocytes", "test": "cell viability, MTT", "setting": "72 h", "quantity": "IC50", "value": "> 100 µg/mL"}
{"Compound": "O=c1ccc2ccccc2o1", "tested on": "NHEK", "test": "cell count", "setting": "concentration not given, 6 h, GSH, ROS, ATP, MMP panel", "quantity": "chance response", "value": "0.01%"}
{"Compound": "O=C1c2c(O)c(=O)ccn2N([C@@H]2c3ccccc3SCc3c2ccc(F)c3F)[C@@H]2COCCN12", "tested on": "influenza A virus H1N1", "test system": "A/WSN/33, BALB/c mice, lung", "setting": "subcutaneous, 1 mg/kg every 6 h, 24 h", "quantity": "lung virus titre", "value": "3 log10 TCID50/mL and 2.5 log10 TCID50/mL"}
{"Compound": "C[C@]12CC[C@H]3[C@@H](CCC4=CC(=O)CC[C@@]43C)[C@@H]1CC[C@@H]2O", "tested on": "human UGT", "test": "glucuronidation", "test system": "human liver microsomes", "setting": "200 µM, 60 min, added: FBI-COOH 50 µM", "quantity": "inhibition", "value": "> 50%"}
{"Compound": "CCNCCc1c[nH]c2cccc(O)c12.CCNCCc1c[nH]c2cccc(O)c12.O=C(O)CCC(=O)O", "test system": "C57BL/6J mice", "setting": "subcutaneous, 0.03 mg/kg, 30 min session", "quantity": "distance travelled", "value": "2240 ± 351 cm"}
{"Compound": "N=C(N)c1ccc(C=C2c3ccccc3-c3ccccc32)cc1", "tested on": "African green monkey cells", "setting": "5 days", "quantity": "CC50", "value": "2.92 µM"}
{"Compound": "CC(C)N1CCC(NC2CCN(c3cccc(-c4cc5cc(F)ccc5[nH]4)c3)CC2)CC1", "tested on": "HCT-15", "quantity": "GI50", "value": "0.749 µM"}
{"Compound": "CCCCCCCCCCCCCCCC[N+](C)(C)CCCCCCCCCC[N+](C)(C)CCCCCCCCCCCCCCCC.[Br-].[Br-]", "tested on": "influenza A virus A/PR/8/34 (H1N1)", "setting": "concentration not given, pre-treatment", "quantity": "HA titre reduction", "value": "1 log units"}
{"Compound": "C#C[C@]1(OC(C)=O)CC[C@H]2[C@@H]3CCC4=CC(=NO)CC[C@@H]4[C@H]3CC[C@@]21CC (mixture of isomers)", "tested on": "African green monkey cells", "setting": "5 days", "quantity": "CC50", "value": "20.9 µM"}
{"Compound": "CCCCCCCCCCCC[N+](C)(C)CCCCCC[N+](C)(C)CCCCCCCCCCCC.[Br-].[Br-]", "tested on": "influenza A virus A/PR/8/34 (H1N1)", "setting": "concentration not given, post-treatment", "quantity": "protection", "value": "56.1 ± 1.9%"}
{"Compound": "CC[C@H](C)[C@@H]1NC(=O)[C@@H]2CCCN2C(=O)[C@H](CC(C)C)NC(=O)[C@H](CC(C)C)NC(=O)CNC(=O)[C@@H](NC(=O)[C@@H](NC(=O)[C@H](CC(=O)O)NC(=O)CNC(=O)[C@@H](NC(=O)[C@H](C)NC(=O)CNC(=O)[C@H](CCCCN)NC(=O)[C@H](CC(C)C)NC(=O)[C@H](CC(C)C)NC(=O)[C@H](CCCCN)NC(=O)CNC(=O)[C@@H](NC(=O)[C@@H](N)CC(C)C)C(C)C)C(C)C)C(C)C)CSSC[C@@H](C(=O)O)NC1=O", "test": "RNA-seq, measured: Ubd mRNA", "test system": "mouse traumatic brain injury, frontal cortex and hippocampus", "setting": "dose not given", "scale": "relative to: TBI plus compound vs TBI", "quantity": "log2 fold change", "value": -3.73}
{"Compound": "COc1c(CCC[P+](c2ccccc2)(c2ccccc2)c2ccccc2)cc2c(c1OC)OCO2.[I-]", "tested on": "HCT-15", "test": "SRB", "quantity": "GI50", "value": "-4.83 log M"}
{"Compound": "Nc1ncnc2c1ncn2[C@@H]1O[C@@H]2COP(=O)(O)O[C@H]3[C@@H](O)[C@H](n4cnc5c(=O)[nH]cnc54)O[C@@H]3COP(=O)(O)O[C@H]2[C@H]1O", "tested on": "HFF-1", "test": "RNA sequencing, measured: Reactome R-HSA-197264", "setting": "upregulated pathways", "scale": "relative to: mock", "quantity": "fold enrichment", "value": 12}
{"Compound": "CN1CCN(S(=O)(=O)c2cc([N+](=O)[O-])ccc2N(CCOS(C)(=O)=O)CCOS(C)(=O)=O)CC1", "test system": "NSG mice, sample CD PDX", "setting": "intraperitoneal, 25 mg/kg weekly x3", "quantity": "event-free survival", "value": "75 days"}
{"Compound": "C[C@@H](O)[C@@H](CO)NC(=O)[C@@H](CCCNC(=N)N)NC(=O)[C@@H]1CCCN1C(=O)[C@@H]1CSSC[C@H](NC(=O)[C@H](Cc2ccccc2)NC(=O)CN2CCN(CC(=O)O)CCN(CC(=O)O)CCN(CC(=O)O)CC2)C(=O)N[C@@H](Cc2ccc(O)cc2)C(=O)N[C@@H](Cc2ccccc2)C(=O)N[C@@H](CCC(N)=O)C(=O)N[C@@H](CC(N)=O)C(=O)N1 [gallium-68 labelled]", "test system": "human serum", "setting": "0 h, 37 °C", "quantity": "radiochemical purity", "value": "> 99%"}
{"Compound": "O=C(Cc1cc(C(F)(F)F)cc(C(F)(F)F)c1)NC1CCOC1=O (stereo not shown)", "tested on": "ExpR2 (Pectobacterium carotovorum)", "test": "cellulase activity, agonist", "test system": "Pectobacterium carotovorum, single-ExpR2 strain", "setting": "200 µM, 4 h", "scale": "relative to: OHHL", "quantity": "activation", "value": "15%"}
{"Compound": "O=C(O)/C=C/C(=O)O.Oc1cccc2[nH]cc(CCNC3CCCCC3)c12", "test system": "C57BL/6J mice", "setting": "subcutaneous, 0.03 mg/kg, 30 min", "quantity": "distance travelled", "value": "3010 ± 259 cm"}
{"Compound": "CCC(CC)O[C@@H]1C=C(C(=O)O)C[C@H](N)[C@H]1NC(C)=O", "tested on": "influenza A virus A/PR/8/34 (H1N1)", "setting": "concentration not given, pre-treatment", "quantity": "protection", "value": "73.8 ± 0.6%"}
{"Compound": "CC(C)NCCc1c[nH]c2cccc(O)c12.O=C(O)/C=C/C(=O)O", "test system": "C57BL/6J mice", "setting": "subcutaneous, 30 mg/kg", "quantity": "head twitch count", "value": "31.8 ± 8.5"}
{"Compound": "CS(=O)(=O)CCCn1c(Cn2c(=O)n(CC(F)(F)F)c3ccncc32)cc2cc(Cl)ccc21", "tested on": "respiratory syncytial virus", "test": "RT-qPCR", "test system": "hospitalized infants 1-24 months, nasal swab", "setting": "oral, 6, 4.5 or 3 mg/kg daily, day 3, mid dose by age cohort", "scale": "relative to: placebo", "quantity": "LS mean difference vs placebo", "value": "-0.91 log10 copies/mL"}
{"Compound": "CCCNCCc1c[nH]c2cccc(O)c12.CCCNCCc1c[nH]c2cccc(O)c12.O=C(O)/C=C/C(=O)O", "test system": "C57BL/6J mice", "setting": "subcutaneous, 0.1 mg/kg", "quantity": "head twitch count", "value": "6.4 ± 1.7"}
{"Compound": "C[C@H]1O[C@@H](O[C@H]2CC[C@@]3(C)[C@@H](CC[C@]4(C)[C@@H]3C=C[C@]35OC[C@@]6(CCC(C)(C)C[C@H]63)[C@@H](O)C[C@]54C)[C@]2(C)CO)[C@H](O)[C@@H](O[C@@H]2O[C@H](CO)[C@@H](O)[C@H](O)[C@H]2O)[C@H]1O", "test": "histology", "test system": "AAV8 empty vector mice, liver", "setting": "dose not given, high dose, added: chronic-plus-binge ethanol", "quantity": "Oil Red O area", "value": "0.064% and 0.08% and 0.062%"}
